Measured values gathered from unrelated publications.
Parts stem from different laboratories: compare values within a part only.

Study 1
Target: Fragile X messenger ribonucleoprotein 1, C-terminal low-complexity region (Fmr1, Mus musculus, UniProt P35922)
Method: RNA Bind-n-Seq
Molecule type: RNA
Sample: in vitro
Concentration: 200 nM
Setting: whole 134-nt RNA, ends assumed
With: 150 mM LiCl
Baseline: input library
Reading: higher = stronger binding
Quantity: log2 enrichment
Each molecule: 7-deaza-guanosine replaces G
Constant ends, left off below: GGGAGUUCUACAGUCCGACGAUC … UGGAAUUCUCGGGUGUCAAGG
Oligonucleotide = CAAGUCCUGUGCUACACAUCGUAUGUACCGAAUCGGGGUUUGGUUUGGUUUGGGGAAAGUAUUAUGUUACGCCGUUCGGAUCUGCACUUC; value = -0.866
Oligonucleotide = UCAAGUCCUGUGCUACACAUCGUAUGUACCGAAUCGGGAAGGGAAGGGGAAGGGAAAGUAUUAUGUUACGCCGUUCGGAUCUGCACUUCC; value = -1.09
Oligonucleotide = CUGUGCUACACAUCGUAUGUACCGAAUCGGGGCCCCCCCGGGCCCCCCCGGCCCCCCCGGGGAAAGUAUUAUGUUACGCCGUUCGGAUCU; value = 0.232
Oligonucleotide = ACCAUGCAGGUGGGCAUCUUUGGGAAGUGGGGCAAGGGGGGGAUAGGGAGGGGGGUAACACCUUGGGAACAGGUGGUCCCAGGUCGUUUC; value = 1.34
Oligonucleotide = GUAAGUGUGGCAAUGUGAACUGAAGCUGAUGGGCUGAGAACAUGGACUGAGCUUGUGGUGUGCUUUGCAGGAGGACUUGAAGCAGAGUUC; value = 1.49
Oligonucleotide = UUUCUCCAAGGACAUCAAGGUGCCCAAGAGCCGCUACCUGGGCUACAUCAAGGACUACGAGGGAGCGACGCUGAUGGAGUGUGAGCUGAA; value = -2
Oligonucleotide = UCAAGUCCUGUGCUACACAUCGUAUGUACCGAAUCGGAAAGGGAAAGGGAAAGGAAAGUAUUAUGUUACGCCGUUCGGAUCUGCACUUCC; value = -0.465

Study 2
Target: Sal-like protein 4, full length isoform A (SALL4, Homo sapiens, UniProt Q9UJQ4, residues 1-1053)
Sequence of UniProt Q9UJQ4 (whole entry, looked up): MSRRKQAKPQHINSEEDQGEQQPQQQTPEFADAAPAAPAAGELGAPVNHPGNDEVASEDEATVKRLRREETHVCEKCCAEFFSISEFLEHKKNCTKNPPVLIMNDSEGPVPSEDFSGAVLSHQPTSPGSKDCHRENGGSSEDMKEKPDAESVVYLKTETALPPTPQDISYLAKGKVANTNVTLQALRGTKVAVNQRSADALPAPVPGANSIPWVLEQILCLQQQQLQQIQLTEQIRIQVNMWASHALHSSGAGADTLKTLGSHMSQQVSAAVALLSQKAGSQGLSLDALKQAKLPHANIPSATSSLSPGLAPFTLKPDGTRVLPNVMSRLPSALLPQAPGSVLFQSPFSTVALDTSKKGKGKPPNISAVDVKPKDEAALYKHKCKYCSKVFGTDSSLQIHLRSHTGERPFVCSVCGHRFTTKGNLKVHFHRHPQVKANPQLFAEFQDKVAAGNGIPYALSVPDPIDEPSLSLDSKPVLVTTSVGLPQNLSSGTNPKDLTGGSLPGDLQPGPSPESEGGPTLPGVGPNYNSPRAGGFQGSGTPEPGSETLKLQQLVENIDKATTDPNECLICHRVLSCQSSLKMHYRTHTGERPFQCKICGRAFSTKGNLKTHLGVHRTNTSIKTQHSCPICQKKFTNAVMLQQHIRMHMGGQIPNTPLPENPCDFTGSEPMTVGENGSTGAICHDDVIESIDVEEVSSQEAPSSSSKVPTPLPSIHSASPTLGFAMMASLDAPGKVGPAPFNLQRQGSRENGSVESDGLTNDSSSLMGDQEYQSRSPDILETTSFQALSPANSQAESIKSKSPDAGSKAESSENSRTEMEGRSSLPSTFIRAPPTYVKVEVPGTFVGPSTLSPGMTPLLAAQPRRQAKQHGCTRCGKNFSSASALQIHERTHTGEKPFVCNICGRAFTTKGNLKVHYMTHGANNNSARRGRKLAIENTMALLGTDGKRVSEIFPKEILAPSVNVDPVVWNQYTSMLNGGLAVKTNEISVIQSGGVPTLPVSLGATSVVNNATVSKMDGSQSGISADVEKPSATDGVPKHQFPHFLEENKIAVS
Method: universal PBM
Molecule type: double-stranded DNA, one strand shown
Sample: in vitro
Concentration: 600 nM
Setting: 8-mer, flanks averaged, mean of replicates
Reading: higher = stronger binding
Quantity: E-score
Oligonucleotide = TATCATGA; value = 0.243
Oligonucleotide = GACCGGGC; value = -0.397
Oligonucleotide = GACCTGCA; value = -0.0113
Oligonucleotide = CGACAAAG; value = 0.13
Oligonucleotide = AGTGGAAA; value = 0.041
Oligonucleotide = CTCTCGGA; value = -0.14
Oligonucleotide = ATTTCCGA; value = 0.227
Oligonucleotide = GACTTCGC; value = -0.186
Oligonucleotide = AGGTACAT; value = 0.0872

Study 3
Target: Interferon regulatory factor 5, full length, phosphomimetic (IRF5, Homo sapiens, UniProt Q13568-2, residues 1-514, K96S/S451D/S453D/S456D/S462D)
Method: protein-binding microarray
Molecule type: double-stranded DNA, one strand shown
Sample: in vitro
Concentration: 250 nM
Setting: 60-bp whole probe
With: salmon DNA 0.4 mg/ml
Baseline: random background probes
Reading: higher = stronger binding
Quantity: log fluorescence
Constant ends, left off below: GCCTAGCAC … GTCTTGATTCGCTTGACGCTGCTG
Oligonucleotide = GACGGTCCCCTTTTCCTGACGTGCTAG; value = -0.271 z-score
Oligonucleotide = GACGGACTGGGTTCCGGGACGTGCTAG; value = -0.524 z-score
Oligonucleotide = AGTGCTATACCACTCTTGCTGTGCTAG; value = -0.0662 z-score
Oligonucleotide = TTAGCTATCCTTTTCCTTTAGTGCTAG; value = 0.797 z-score
Oligonucleotide = CCCTGTGTTACTTTCTACTTGTGCTAG; value = 2.14 z-score
Oligonucleotide = TTAGGTTTCGGGCATCGGTTAGTGCTA; value = 7.06 z-score
Oligonucleotide = GACGGACTGGGTCTCTGGACGTGCTAG; value = -0.631 z-score
Oligonucleotide = GACGGTTTCGACTCTCGGGACGTGCTA; value = 5.36 z-score
Oligonucleotide = TTAGGTCTCGGTATAGGTTAGTGCTAG; value = 0.621 z-score

Single results of other studies
Molecule = PhoQ, residues 284 288 289 292 302 303 TVTVVA; target = PhoP, residues 12 14 15 18 19 LHTVM (Escherichia coli, UniProt P23836); assay = Sort-seq, measured: YFP reporter; test system = E. coli; conditions = PhoQ-PhoP variant library, with: 10 µM Mg2+; scale = baseline: high Mg2+ state, higher = stronger signaling; quantity = fold induction; value = 16.5

Excerpt of the above (study 2):
Oligonucleotide = AGTGGAAA; value = 0.041
Oligonucleotide = CTCTCGGA; value = -0.14
Oligonucleotide = ATTTCCGA; value = 0.227
Oligonucleotide = GACTTCGC; value = -0.186
